Published values gathered from unrelated publications.
Each line is one published result; not all experiments were run side by side. Values joined by “and” are separate records of one study, mostly repeats; a detail may differ. Numbers after ± are the reported error.

With `C/C(N)=N/C(=N\S(=O)(=O)c1ccc(C(F)(F)F)cc1)N1C[C@H](c2ccccc2)C(c2ccc(Cl)cc2)=N1` the Tmax was 0.1 h (C57BL/6 mouse, plasma; intravenous, 10 mg/kg).
For `CC(=O)N([O-])CCCCCNC(=O)CCC(=O)N([O-])CCCCCNC(=O)CCC(=O)N([O-])CCCCCN.[89Zr+4]`, the intact complex was 83 ± 3.1% (radio-TLC; aqueous buffer; 3 d, pH 7, 37 °C, 89Zr-labelled complex, with: DTPA 1000-fold excess).
With `O=C([O-])CN1CCN(CC(=O)[O-])CCN(C(CO)C(O)CO)CCN(CC(=O)[O-])CC1.[Dy+3]` (stereo not drawn) the effective half-life was 1.21 h (female cynomolgus monkey, plasma; intravenous, dose not given).
Under “folding free energy”, `CSCC[C@H](N)C(=O)N[C@@H](CO)C(=O)N[C@H](C(=O)N[C@@H](C)C(=O)NCC(=O)N[C@@H](CC(C)C)C(=O)N[C@@H](CCCCN)C(=O)N[C@@H](CCCCN)C(=O)N[C@@H](CCC(N)=O)C(=O)N[C@@H](Cc1c[nH]c2ccccc12)C(=O)N[C@@H](Cc1c[nH]cn1)C(=O)N[C@@H](CCCCN)C(=O)N[C@@H](C)C(=O)N[C@H](C(=O)N[C@@H](CCC(N)=O)C(=O)N[C@@H](CCCCN)C(=O)N[C@H](C(=O)N[C@@H](CO)C(=O)N[C@@H](CCC(=O)O)C(=O)N[C@@H](CCCCN)C(=O)N[C@H](C(=O)NCC(=O)NCC(=O)N[C@@H](C)C(N)=O)C(C)C)C(C)C)[C@@H](C)O)C(C)C` is recorded as 6.71 kcal/mol (water).
Under “subjects with TEAEs”, `CC(C)(O)c1ncc([S@](N)(=O)=NC(=O)Nc2c3c(cc4c2CCC4)CCC3)s1` is recorded as 2% (refers to: infections and infestations; healthy human; oral, dose not given, all active doses pooled).
The Tmax of `C=C(NC(=O)c1csc(-c2nc3c(cc2O)-c2nc(cs2)C(=O)NC(C(C)O)C(=O)NC(=C(C)OC)c2nc(cs2)C(=O)NC2c4nc(cs4)C(=O)NC(COC(=O)c4c5c6c(cccc6n4O)COC(=O)C(OC4CC(C)(O)C(N(C)C)C(C)O4)C2OC5)c2nc-3cs2)n1)C(N)=O` (stereo not drawn) is reported as 6.08 h (ICR mice, Streptococcus pneumoniae ATCC 49169 infected, immunocompromised, blood; intravenous, 8 mg/kg/day twice daily).
`CC[C@H](C)[C@H](NC(=O)[C@H](Cc1ccc(O)cc1)NC(=O)[C@@H](NC(=O)[C@H](CCCNC(=N)N)NC(=O)[C@@H](N)CC(=O)O)C(C)C)C(=O)N[C@@H](Cc1c[nH]cn1)C(=O)N1CCC[C@H]1C(=O)O` gave an AUC of 15.8 ng·h/mL (LC-MS/MS; Sprague-Dawley rats, both sexes, plasma; subcutaneous, 10 mg/kg/day, day 0).
For `COc1cccc(OC)c1-c1cc(C(=O)NC2(C(=O)O)C3CC4CC(C3)CC2C4)nn1-c1ccc(C(=O)N(C)CCCN(C)CCCN(C)C(=O)[C@H](CCCCNC(=O)[C@H](CC(C)C)NC(=O)C2OC2C(=O)O)NC(=O)CN2CCN(CC(=O)[O-])CCN(CC(=O)[O-])CCN(CC(=O)[O-])CC2)cc1C(C)C.[177Lu+3]` (mixture of isomers), “tumour-to-small intestine ratio” read 8.5 (mouse HT-29 xenograft; 4 h, biodistribution; baseline: tumour over small intestine).
For `CCC(CC)n1c(Cc2cccs2)nc2cc(C(=O)N[C@@H](CC(=O)O)c3ccccc3)ccc21`, the Cmax was 1160 ng/mL (male Sprague-Dawley rat, plasma; intravenous, 1 mg/kg).
`COc1ccc(C(=O)c2c(C(=O)NCCCN(C)C)oc3ccc(Cl)cc3c2=O)cc1OC`: “AUC extrapolated share” 24% (C57BL/6 mice, male, brain; oral, 5 mg/kg).
`Cc1nc(N)nc2c1C(=O)N[C@@H](c1ccc(F)cc1-c1cccc(O[11CH3])n1)C2` gave a tracer uptake of 14.7 ± 0.8 %ID (ex vivo biodistribution; mice, U87 subcutaneous xenograft, liver; 60 min post-injection, baseline, vehicle pre-treatment).
`CCCCCCCCCCCCOC(=O)c1ccc(O)cc1` gave a mass balance of 89% (empty Transwells without cells; 5 µM, 60 min, basolateral to apical).
`CC[C@H](C)[C@@H]1NC(=O)[C@@H](NC(=O)[C@H](CCCNC(=N)N)NC(=O)[C@H](CCCCN)NC(=O)[C@H](Cc2c[nH]c3ccccc23)NC(C)=O)CSC=CCCC[C@@H](C(=O)N[C@@H](CC(C)C)C(=O)N[C@@H](CC(C)C)C(=O)N[C@@H](CCC(N)=O)C(=O)N[C@@H](CCC(=O)O)C(N)=O)NC(=O)[C@H](CCCNC(=N)N)NC(=O)[C@H](CC(C)C)NC1=O` gave a helicity of 30% (circular dichroism; 10 mM phosphate buffer; pH 7.4, 20 °C).
Under “tumour-to-small intestine ratio”, `COc1cccc(OC)c1-c1cc(C(=O)NC2(C(=O)O)C3CC4CC(C3)CC2C4)nn1-c1ccc(C(=O)N(C)CCOCCOCCN(C)C(=O)[C@H](CCCCNC(=O)[C@H](CC(C)C)NC(=O)C2OC2C(=O)O)NC(=O)CN2CCN(CC(=O)[O-])CCN(CC(=O)[O-])CCN(CC(=O)[O-])CC2)cc1C(C)C.[177Lu+3]` (mixture of isomers) is recorded as 6.84 (mouse HT-29 xenograft; 4 h, biodistribution; baseline: tumour over small intestine).
`C=C[C@]1(C)C[C@@H](OC(=O)CSc2ccc(NC(=O)c3ccco3)cc2)[C@]2(C)[C@H](C)CC[C@]3(CCC(=O)[C@H]32)[C@@H](C)[C@@H]1O` gave a %T>MIC of 89.5% (chickens; 5 mg/kg, 24 h).
For `C=CC(=O)Nc1cc(Nc2nccc(-c3cn(C)c4ccccc34)n2)c(OC)cc1N(C)CCNC`, the recovery was 90.3% (storage stability; human dried blood spots; 72 h, -80 °C, low QC level).
The MRT(0-last) of `Cc1nn(-c2nc3c(F)cc(F)cc3s2)c(O)c1C(c1ccc(C(F)(F)F)cc1)c1c(C)nn(-c2nc3c(F)cc(F)cc3s2)c1O` is reported as 6.42 h and 7.11 h and 7.82 h (ICR mouse, plasma; intraperitoneal, 10 mg/kg).
`C=CC(=O)Nc1cc(Nc2nccc(-c3c[nH]c4ccccc34)n2)c(OC)cc1N(C)CCN(C)C` has a recovery of 99.8% (storage stability; human plasma; 24 h, -80 °C, LLOQ level).
For `CCCC[C@H](NC(=O)CNC(=O)CNC(=O)[C@H](CCCCNC(=O)[C@H](CC(=O)O)NC(=O)C(C)c1ccc(CC(C)C)cc1)NC(=O)CN1CCN(CC(=O)O)CCN(CC(=O)O)CCN(CC(=O)O)CC1)C(=O)N[C@H]1CC(=O)NCCCC[C@@H](C(N)=O)NC(=O)[C@H](Cc2c[nH]c3ccccc23)NC(=O)[C@H](CCCNC(=N)N)NC(=O)[C@@H](Cc2ccccc2)NC(=O)[C@H](Cc2c[nH]cn2)NC1=O` (stereo partly drawn) [lutetium-177 labelled], the tissue uptake was 2.69 ± 0.54 %ID/g (C57 mouse, tumor; intravenous, 2 h, with: 10 µg NDP-MSH co-injection).
The tracer uptake of `CN([O-])C(=O)CN1CCNCCN(CC(=O)N(C)[O-])CC1.[89Zr+4]` is reported as 0.04 %ID/g (mouse, muscle; intravenous, 24 h).
For `CNCc1ccc(-c2cc(=O)c3ccc4[nH]c(C(F)(F)F)nc4c3o2)cc1`, the AUC was 35.8 ng·h/mL (ICR mice, brain; oral, 5 mg/kg).
`O=C1NCC(COc2nccc3c(NCc4ccccc4)cc(Cl)nc23)O1` (stereo not drawn) has a tissue/plasma ratio of 0.5 (C57BL/6 mouse, heart; oral, 30 mg/kg, 0.5 h; baseline: heart over plasma).
For `O=C(Nc1cnccc1-c1ccc([18F])cc1)c1ccnc(NC(=O)C2CC2)c1`, the SUV was 0.84 (ex vivo gamma counting; GSK-3β transgenic mice, late-stage, bladder; intravenous, 120 min, mean, no P-gp inhibitor).
With `CCCCN1C(=O)c2cccc3c(NCCN4CCOCC4)ccc(c23)C1=O` the fluorescence lifetime was 6.9 ns (water; pH 6.0).
`O=C(Nc1cnccc1-c1ccc([18F])nc1)c1ccnc(NC(=O)C2CC2)c1` gave an SUV of 0.164 (FVB/NJ mice, both sexes, brain; intravenous, 40 min, median, P-gp inhibitor pretreatment, with: tariquidar 15 mg/kg iv).
The zeta potential of `CCCCCCCCCCO[Si](CCCCN(C)C)(OCCCCCCCCCC)OCCCCCCCCCC` is reported as -0.05 mV (pH 7.5, formulated).
`CN(C)c1ccc(-c2oc3cc4ccccc4cc3c(=O)c2O)cc1` has a CO yield of 0.99 (DMSO; with: visible light 445-465 nm).
For `C=CC[C@@H]1/C=C(\C)C[C@H](C)C[C@H](OC)[C@H]2O[C@@](O)(C(=O)C(=O)N3CCCC[C@H]3C(=O)O[C@H](/C(C)=C/[C@@H]3CC[C@@H](O)[C@H](OC)C3)[C@H](C)[C@@H](O)CC1=O)[C@H](C)C[C@@H]2OC`, the AUC(0-24h) was 438 ± 20 ng·h/mL (LC-MS/MS; rat, whole blood; intraperitoneal, 0.5 mg/kg single dose).
`CCCCCCCCCCCCCCCC(=O)N[C@@H](CCC(=O)NCCCC[C@H](NC(=O)[C@H](C)NC(=O)[C@H](C)NC(=O)[C@H](CCC(N)=O)NC(=O)CNC(=O)[C@H](CCC(=O)O)NC(=O)[C@H](CC(C)C)NC(=O)[C@H](Cc1ccc(O)cc1)NC(=O)[C@H](CO)NC(=O)[C@H](CO)NC(=O)[C@@H](NC(=O)[C@H](CC(=O)O)NC(=O)[C@H](CO)NC(=O)[C@@H](NC(=O)[C@H](Cc1ccccc1)NC(=O)[C@@H](NC(=O)CNC(=O)[C@H](CCC(=O)O)NC(=O)[C@H](C)NC(=O)[C@@H](N)Cc1cnc[nH]1)[C@@H](C)O)[C@@H](C)O)C(C)C)C(=O)N[C@@H](CCC(=O)O)C(=O)N[C@@H](Cc1ccccc1)C(=O)N[C@H](C(=O)N[C@@H](C)C(=O)N[C@@H](Cc1c[nH]c2ccccc12)C(=O)N[C@@H](CC(C)C)C(=O)N[C@H](C(=O)N[C@@H](CCCNC(=N)N)C(=O)NCC(=O)N[C@@H](CCCNC(=N)N)C(=O)NCC(=O)O)C(C)C)[C@@H](C)CC)C(=O)O` gave an AST of 25 ± 3.3 U/L (obese diabetic cynomolgus monkey, serum; dose not given, day 43).
For `CCC(C(=O)Nc1ccc(C(N)=O)c(F)c1)n1cc(OC)c(-c2cc(Cl)ccc2-n2cc(C(F)(F)F)nn2)cc1=O` (stereo not drawn), “subjects with moderate adverse event” read 7.1% (male humans; oral, 50 mg, fasted).
With `C=CC[C@@H]1/C=C(\C)C[C@H](C)C[C@H](OC)[C@H]2O[C@@](O)(C(=O)C(=O)N3CCCC[C@H]3C(=O)O[C@H](/C(C)=C/[C@@H]3CC[C@@H](O)[C@H](OC)C3)[C@H](C)[C@@H](O)CC1=O)[C@H](C)C[C@@H]2OC` the dose-normalized AUC(0-12h) was 165 ± 82 ng·h/mL (kidney transplant recipients, CYP3A5 *3/*3, whole blood; oral, dose not given, late phase, limited sampling).
`CCCCC/C=C\CCCO[Si](CCCCCN(C)C)(OCCC/C=C\CCCCC)OCCC/C=C\CCCCC` has a zeta potential of 0.46 mV (pH 7.5, formulated).
`COc1cccc(OC)c1-c1cc(C(=O)NC2(C(=O)O)C3CC4CC(C3)CC2C4)nn1-c1ccc(C(=O)N(C)CCCN(C)C(=O)[C@H](CCCCNC(=O)[C@H](CC(C)C)NC(=O)C2OC2C(=O)O)NC(=O)CN2CCN(CC(=O)[O-])CCN(CC(=O)[O-])CCN(CC(=O)[O-])CC2)cc1C(C)C.[177Lu+3]` (mixture of isomers) — result for “tumour-to-large intestine ratio”: 7.72 (mouse HT-29 xenograft; 4 h, biodistribution; baseline: tumour over large intestine).
`O=C(c1ccccc1)N1C(c2ccc(OCC3CCN(CCCF)C3)cc2)c2ccc(O)cc2CC12CC2` (stereo not drawn) — result for “AUC extrapolated percentage”: 2.61% (C57BL/6J mice, plasma; oral, 25 mg/kg).
`CC[C@H](C)[C@@H]1NC(=O)[C@H](Cc2ccc(O)cc2)NC(=O)CCCSC[C@@H](C(=O)N(CC(=O)N[C@@H](CC(C)C)C(=O)NCC(N)=O)Cc2ccc(F)cc2)NC(=O)[C@H](CC(N)=O)NC(=O)[C@H](CCC(N)=O)NC1=O`: “subjects with any TEAE” 67% (human; intranasal, 200 µg, 11 repeated doses).
`COc1cccc(OC)c1-c1cc(C(=O)NC2(C(=O)O)C3CC4CC(C3)CC2C4)nn1-c1ccc(C(=O)NCCNC(=O)[C@H](CCCCNC(=O)[C@H](CC(C)C)NC(=O)C2OC2C(=O)O)NC(=O)CN2CCN(CC(=O)[O-])CCN(CC(=O)[O-])CCN(CC(=O)[O-])CC2)cc1C(C)C.[177Lu+3]` (mixture of isomers) gave a tumour-to-lung ratio of 5.48 (mouse, HT-29 xenograft; 4 h post injection, biodistribution; baseline: tumour over lung uptake).
